Experimental data pooled from the literature.
Each numbered part is a random draw from the data of one study; scales do not carry over between parts.

Sample 1 — method: protein binding microarray; molecule type: double-stranded DNA, one strand shown; matrix: in vitro; concentration: not given; reference: not given; reading: higher = stronger binding
Target: Histone acetyltransferase KAT6A, winged helix 1, GST fusion (KAT6A, Homo sapiens, UniProt Q92794, residues 1-85)
Notes: 8-mer, flanks averaged, mean of 2 arrays, mostly near background
Target sequence (chain): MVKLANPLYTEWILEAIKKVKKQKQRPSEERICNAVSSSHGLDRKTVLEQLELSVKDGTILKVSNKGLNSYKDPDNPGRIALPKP
With `CCTCCTCA` the E-score was -0.0905.
For `CCACCTCC`, the E-score was -0.149.
The E-score of `ACTTTGAT` is reported as -0.266.
For `GATGCAGC`, the E-score was -0.0617.
For `CACGGGCA`, the E-score was 0.238.
`CGTATGAA` gave an E-score of 0.116.
`AGCCGCAT` has an E-score of 0.21.
For `AGTACGGA`, the E-score was 0.204.
The E-score of `TGTTGAAA` is reported as -0.0445.
With `CTGAGCAA` the E-score was -0.261.
The E-score of `CAAAATGG` is reported as -0.0785.
The E-score of `GGTATAGA` is reported as -0.0776.
`AACTAAGA` has an E-score of -0.0748.
`ACGGGTAG` gave an E-score of 0.294.
With `TAGGTGAA` the E-score was -0.3.
`GCGGTTAA` gave an E-score of 0.18.
`CTCATTGA` has an E-score of -0.124.
The E-score of `ACGGCTTC` is reported as 0.38.
`GCGCCAGA` has an E-score of 0.192.
The E-score of `AGTGAGTA` is reported as -0.109.
`AAGTAAAC` gave an E-score of -0.146.
`AAAAGCTA` has an E-score of -0.115.
For `AGCTTGGC`, the E-score was -0.0862.
`ACTTGGAA` has an E-score of -0.23.
The E-score of `CACGCTAG` is reported as 0.138.

Sample 2 — method: DNA-protein interaction ELISA; molecule type: double-stranded DNA, one strand shown; matrix: in vitro, bacterial lysate; concentration: not given; notes: whole dsDNA probe, crude lysate protein; reference: highest signal in screen; reading: higher = stronger binding
Target: Probable WRKY transcription factor 50, DNA-binding domain (WRKY50, Arabidopsis thaliana, UniProt Q8VWQ5, residues 99-173)
Residues (chain): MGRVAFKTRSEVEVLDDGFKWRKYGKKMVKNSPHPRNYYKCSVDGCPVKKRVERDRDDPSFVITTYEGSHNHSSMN
The relative absorbance of `AAAAAAGTTCGGGGCTTGGTTTGGAAAAAA` is reported as 37.1 % of maximum.
With `AAAAAATGCCGAGACCCCATGCCGGCAAAA` the relative absorbance was 10.4 % of maximum.
`AAAAAACGCAACTCCGGATGTGGGGTAAAA` gave a relative absorbance of 14.9 % of maximum.
With `AAAAAAGGGTTTAGATGTCCTTCAAAAAAA` the relative absorbance was 9.08 % of maximum.
With `AAAAAATCTTCTTGTTTCTTATTTCTAAAA` the relative absorbance was 27.9 % of maximum.
`AAAAAATATCCTATTCTAATTTATATAAAA` gave a relative absorbance of 32.1 % of maximum.
With `AAAAAACGTTGAACCTGGGCCTCAACAAAA` the relative absorbance was 34.9 % of maximum.
The relative absorbance of `AAAAAAGTGCACGACCCATTTATATAAAAA` is reported as 38.8 % of maximum.
`AAAAAATTTTGTTTTTGCTTTTCCTTAAAA` has a relative absorbance of 13.7 % of maximum.
`AAAAAAGCGGTAGATGCGCAACTGTGAAAA` has a relative absorbance of 14 % of maximum.
The relative absorbance of `AAAAAAGATGATTAGTAATTGCGGAAAAAA` is reported as 17.1 % of maximum.
For `AAAAAACCGTCTTATCTCTCGTCCCTAAAA`, the relative absorbance was 38.6 % of maximum.
For `AAAAAAGGGAGTCATGCTTCTTGTTTAAAA`, the relative absorbance was 63.4 % of maximum.
`AAAAAACTACAACCTGCGCGGTGGTCAAAA` has a relative absorbance of 16.7 % of maximum.
With `AAAAAATGGAAAGACCTATACCGGTCAAAA` the relative absorbance was 33.8 % of maximum.
`AAAAAAACCCTGTGTCGGCCGATAAAAAA` gave a relative absorbance of 15.8 % of maximum.
`AAAAAACGCTTTCAGTTTTGATCTTAAAAA` has a relative absorbance of 10.3 % of maximum.
`AAAAAACACTGCACTATTGGGAGTTCAAAA` has a relative absorbance of 13.6 % of maximum.
`AAAAAACCCGTTCTACCTTATTCCTGAAAA` has a relative absorbance of 21.1 % of maximum.

Sample 3 — method: RNA Bind-n-Seq; molecule type: RNA; matrix: in vitro; concentration: 200 nM; notes: whole 134-nt RNA, ends assumed; with: 150 mM LiCl; reference: input library; reading: higher = stronger binding; each molecule: 7-deaza-guanosine replaces G
Target: Ras GTPase-activating protein-binding protein 1, full length (G3BP1, Homo sapiens, UniProt Q13283)
Sequence of UniProt Q13283 (whole entry, looked up): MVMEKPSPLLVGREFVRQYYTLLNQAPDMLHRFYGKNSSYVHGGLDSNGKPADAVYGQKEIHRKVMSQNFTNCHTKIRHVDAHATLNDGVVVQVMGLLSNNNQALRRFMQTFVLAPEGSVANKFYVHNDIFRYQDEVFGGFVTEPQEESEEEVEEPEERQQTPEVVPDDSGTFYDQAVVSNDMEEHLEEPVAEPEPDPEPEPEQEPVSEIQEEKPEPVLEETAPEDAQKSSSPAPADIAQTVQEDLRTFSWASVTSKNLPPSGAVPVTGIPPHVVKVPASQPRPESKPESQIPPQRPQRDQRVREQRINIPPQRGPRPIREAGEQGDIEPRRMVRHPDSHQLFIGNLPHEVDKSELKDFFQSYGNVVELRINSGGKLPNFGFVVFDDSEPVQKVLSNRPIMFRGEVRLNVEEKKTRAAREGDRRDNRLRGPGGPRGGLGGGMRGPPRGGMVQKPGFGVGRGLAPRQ
Shared flanks, not repeated: GGGAGUUCUACAGUCCGACGAUC … UGGAAUUCUCGGGUGUCAAGG
`GUCCUGUGCUACACAUCGUAUGUACCGAAUCGGGCCCCCGGGGCCCCCGGGCCCCCGGGAAAGUAUUAUGUUACGCCGUUCGGAUCUGCA` has a log2 enrichment of -1.65.
`UAACUUUAGAGGAGGAUCUGAUGGAUAUGGCAGUGGACGUGGAUUUGGGGAUGGCUCUAAUGGGUAUGGAGGAGGACCUGGAGGUGGCAA` gave a log2 enrichment of -0.425.
The log2 enrichment of `UUCAGUUGGAUGGAUUUAUUGCUCGAAACUGGGCCAAUCAAAGAUCAGCUUUGGGAAGUGCUCUUGAUCCACUUGCUGAUAAAAUACUUA` is reported as -2.49.
`CUCAAGUCCUGUGCUACACAUCGUAUGUACCGAAUCGGCCGGGCCGGGGCCGGGAAAGUAUUAUGUUACGCCGUUCGGAUCUGCACUUCC` has a log2 enrichment of 0.446.
For `ACCAUGCAGGUGGGCAUCUUUGGGAAGUGGGGCAAGGGGGGGAUAGGGAUGGGGGUAACACUUUGGGAACAGGUGGUCCCAGGUCGUUUC`, the log2 enrichment was 0.34.
`GUCCUGUGCUACACAUCGUAUGUACCGAAUCGGAAAAAGGGAAAAAGGGGAAAAAGGGGAAAGUAUUAUGUUACGCCGUUCGGAUCUGCA` has a log2 enrichment of 0.084.
`GUCCUGUGCUACACAUCGUAUGUACCGAAUCGGGUUUUUUUGGGAAAAAGGGUUUGGGAAAGUAUUAUGUUACGCCGUUCGGAUCUGCAC` has a log2 enrichment of -2.68.
`ACCAUGCAGGUGGGCAUCUUUGGGAAGUGGGGCAAGGGGGGGAUAGGGAGGGGGGUAACACAAAGGGAACAGGUGGUCCCAGGUCGUUUC` gave a log2 enrichment of -0.0824.
The log2 enrichment of `UCCUCAAGUCCUGUGCUACACAUCGUAUGUACCGAAUCGGUGGGUGGUGGGGAAAGUAUUAUGUUACGCCGUUCGGAUCUGCACUUCCAG` is reported as 0.883.
`AGUCCUGUGCUACACAUCGUAUGUACCGAAUCGGGGAAAAGGAAAAGGGGAAAAGGGGAAAGUAUUAUGUUACGCCGUUCGGAUCUGCAC` has a log2 enrichment of 0.263.
`AGUCCUGUGCUACACAUCGUAUGUACCGAAUCGGGCCCCGGGGCCCCGGCCCCGGGGAAAGUAUUAUGUUACGCCGUUCGGAUCUGCACU` gave a log2 enrichment of -2.19.

Sample 4 — method: RNA Bind-n-Seq; molecule type: RNA; matrix: in vitro; concentration: 365 nM; reference: no-protein control; reading: higher = stronger binding
Target: RNA binding protein fox-1 homolog 2, RRM domain, GST-SBP tag (RBFOX2, Homo sapiens, UniProt O43251-10, residues 100-194)
Notes: natural RNA segment, single round, ends assumed
Shared flanks, not repeated: GGGAGUUCUACAGUCCGACGAUC … UGGAAUUCUCGGGUGCCAA
Construct (chain): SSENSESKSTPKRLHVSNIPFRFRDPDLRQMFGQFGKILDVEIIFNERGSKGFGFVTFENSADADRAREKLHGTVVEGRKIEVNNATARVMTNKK
`UCAGAGCUUGUCUCCUUGGCUUCCAACCCCAGAAAUGCCUGCUGGGCCUUAAGCUUUCCAGGGGCCGGGGCAGUGGGGAGCCCCCAUCCCUUCACACCGCCACCAACUAA` — result for “RBNS enrichment (R)”: 0.692.
Under “RBNS enrichment (R)”, `UUAAGUGUUCUGUGGCUGAUUUACUAACAGUAACUGCCAUUUUUUGUCUGUGAUAACAGAGUGAUUUGUAAAACAGUGGUUGUUUUUUCAUUGUGUUUUCUUCGUGGAUU` is recorded as 0.36.
For `AUUUUUUUUGUACAUUUUGGCUGCAGUAUUGGUGGUAGAAUAUACUAUAAUAUGGAUCAUCUCUACUUCUGUAUUUAUUUAUUUAUUACUAGACCUCAACCACAGUCUUC`, “RBNS enrichment (R)” read 0.573.
`GUUUUUGAAGUACAUCUUCUGGCCCCUUGAGUACUGCCAGAGGCAAAAGAUGUUUGUUUCUUAUUCAUUCCACUUUUGUCUCCUGGGAUCCCUUCUGUAGCCUAAAGUAU`: “RBNS enrichment (R)” 0.554.
For `UGAUUAUGGUCAGAGACUUUCAACCCACCCCUUCCUGCCUACCCCUGGCUUUUCCUCACAAAGAAUGUCUAGACAAACAGCAGCUUAGUCUCCUGACACCUCUUGUGGGG`, “RBNS enrichment (R)” read 0.206.
Under “RBNS enrichment (R)”, `CCUGCCUGUUGUGAUAACCAGCUCUUAGGUAUUUCCUUUCCCUGAGGCUUUCCAUUUAACAUGGAAUCCUUCUCCCCAAGAAGGCUUCUUCCUUGUUUUAGAGGAAGGUA` is recorded as 0.253.
Under “RBNS enrichment (R)”, `AUCGUUUGGAACCUGGUAUUUCUGUUGUGUUCUUGGCAGUGCAUAGGAACCCAGCCUCCUGUGUUUUGACCCUCCUGCAGGCACUGUGGGACUCGAGGGCAGCAGAUCCA` is recorded as 0.629.
For `AAAUAUCUUUGUGAAUAUUUUAGUAUCGUCUUUGAUAAUAUUCAACAUUUUCAUGACCUGGUUAUAGCCUUUGCUGGUGUUUUUAAAAUACCUGGACUCAAUGACAAAGA`, “RBNS enrichment (R)” read 0.441.
`GCCAUUUCAAACAGUUCCAGUGACCUACUCCUUUUAAGUUGGACACCGAGGCCAAAGGCUGCCUCAGCCUUCCCAGCCCAUCCACUCAGCUGUUACCACCCUCUCAGCCU`: “RBNS enrichment (R)” 0.377.
Under “RBNS enrichment (R)”, `UUUCCUUGCAUACAAAUAAGCAUAUAAAAUGGCAACAAACUGCACAUGAUUUCACAAAUAUUAAAAUGUCUUUUAAAAAGUAUUGCCAAACAGUAAUGUUGAUUUCUAGU` is recorded as 0.96.
Under “RBNS enrichment (R)”, `UUUAAUUUUUUUGUACUAGAAAAAAAUUUGAACAUUUUAGUUCUUGGUUAUAAAAAUGUUAAUUCAGAAUUAGUUUAAUGCCUUAAUUAAACUAAUUAAUAGCUUUGGAC` is recorded as 0.624.
For `GCAGGAGGUGGACACCCAGCCAGAGGCCUGGCUCAAGGUGACCUCACCUUCACCAUGGGCUUCCUGGGUGCGCGGGCCUGAGCGCAGGUUGUUUUGUACAUAUUGGAAUA`, “RBNS enrichment (R)” read 0.369.

Sample 5 — method: universal PBM; molecule type: double-stranded DNA, one strand shown; matrix: in vitro; concentration: not given; reading: higher = stronger binding
Target: Sal-like protein 4, full length isoform B (SALL4, Homo sapiens, UniProt Q9UJQ4-2, residues 1-616)
Notes: 8-mer, flanks averaged, mean of replicates
For `CTCAGGGC`, the E-score was -0.252.
With `AGAGAGAC` the E-score was -0.154.
The E-score of `GAGCCGGC` is reported as -0.24.
`CCTTGAAA` has an E-score of 0.0733.
With `GTATGCCA` the E-score was -0.161.
`AACCACAC` gave an E-score of -0.0138.
`ATCTACAT` has an E-score of 0.208.
With `CCTCGGAG` the E-score was -0.301.
`CAGTTGTC` gave an E-score of -0.0292.
`ACAGCTAA` gave an E-score of 0.00073.
`AAAAGAAA` has an E-score of 0.255.
`CCCCCAGC` has an E-score of -0.276.
With `CATCACAG` the E-score was -0.0979.
`ACCGTGGC` gave an E-score of -0.255.
The E-score of `AATGCATT` is reported as 0.305.
For `CTAGTAGC`, the E-score was -0.124.
The E-score of `CAGTGCAC` is reported as -0.217.
`CGGAAGCC` gave an E-score of -0.269.
`AGGGGCGG` has an E-score of -0.301.
For `CCAATCCA`, the E-score was -0.247.
The E-score of `ACAGACGG` is reported as -0.176.
For `AATCATCA`, the E-score was 0.212.
`CGGATGCC` gave an E-score of -0.114.
For `CGGAACAG`, the E-score was -0.177.
`GCATTACC` has an E-score of -0.0235.
